# Earlier results as cited in several papers.
# Numbered parts are unrelated; values within a part may stem from several laboratories. Values joined by “and” are separate records of one study, mostly repeats; a detail may differ.

# Series 1
# SMILES: C=CC(=O)N1CCN(c2ncnc3c(F)c(-c4c(O)cccc4F)c(Cl)cc23)CC1
# Cell line: MIA PaCa-2
# Measured: phospho-ERK
setting,ERK phosphorylation
3.33 µM,13.5% and 11.5%
370 nM,60.1% and 72.2%
500 pM,101% and 107%
4.6 nM,101% and 98.9%
10 µM,5.77% and 7.15%

# Series 2
# SMILES: CN(C)CC/C=C1/c2ccccc2Sc2ccc(Cl)cc21
# Cell line: MCF7
# Technique: microarray
# Tested at: concentration not given
# Baseline: DMSO
assay,log2 fold change
measured: USO1 mRNA,1.44
measured: WDR45 mRNA,1.22
measured: STX3 mRNA,1.99
measured: TSFM mRNA,0.77
measured: SLCO4C1 mRNA,1.95
measured: STX5 mRNA,1.52
measured: VEGFA mRNA,2.18

# Series 3
# Compound: c1ccc(N2CCN(Cc3nc4ccccc4[nH]3)CC2)nc1
# Technique: biochemical
target,Ki [nM]
DRD4.4,63.6
DRD4.7,46.8
DRD4.2,57.5

# Series 4
# Organism: Toxoplasma gondii
# Tested at: concentration not given
SMILES,activity
Nc1c2c(nc3ccccc13)CCCC2,inactive
Cc1cccc(C)c1OCC(C)N (stereo not shown),inactive
CNCCCC12CCC(c3ccccc31)c1ccccc12,inactive
Clc1ccc2nsnc2c1NC1=NCCN1,inactive
